Experimental data from different studies.
Each line is one published result; not all experiments were run side by side. Values joined by “and” are separate records of one study, mostly repeats; a detail may differ. ± gives the spread as reported.

SMILES | test | test system | setting | how to read | measurement | result
CCC(CC)COC(=O)[C@H](C)N[P@](=O)(OC[C@H]1O[C@@](C#N)(c2ccc3c(N)ncnn23)[C@H](O)[C@@H]1O)Oc1ccccc1 | – | human | – | – | plasma half-life | ~60 min
C=C1C[C@H]2[C@@H]3CC[C@H](O[C@@H]4O[C@H](C(=O)O)[C@@H](O)[C@H](O)[C@H]4O)[C@@]3(C)CC[C@@H]2[C@@]2(C)C=CC(=O)C=C12 | – | human, postmenopausal women, serum | oral, 25 mg daily, 1 year, UGT2B17 and GSTA1 genotypes | – | serum concentration | 61 nM
O=C(O)CCCO | – | male Sprague-Dawley rat | intravenous, 600 mg/kg daily for 5 days, day 5 | – | respiratory frequency | no effect
O=C(O)CCC(CP(=O)(O)O)C(=O)O (centres unmarked) | – | male Wistar rat, plasma | ip, 100 mg/kg | – | Tmax | 15 min
CCCC(C(=O)c1ccc(O)c(OC)c1)N1CCCC1 (centres unmarked) | – | rat, plasma | subcutaneous, dose not given, after MDPV dosing, median | – | conjugated fraction | 98.2%
Cc1ncc2n1-c1ccc(Cl)cc1C(c1ccccc1F)=NC2 | – | wild-type mice, plasma | intravenous, 0.3 mg/kg, with: 3-day PCN 10 mg/kg | – | AUC(0-inf) | 0.042 ± 0.00322 µM·h
COc1ccc2[nH]cc(CCN(C)C)c2c1 | – | 1-octanol/phosphate buffer | pH 7.4 | – | distribution coefficient | 3.3
C[C@]12CC[C@H]3[C@@H](CCC4=CC(=O)CC[C@@]43C)[C@@H]1CC[C@@H]2O | – | cryopreserved human hepatocytes | 1 µM | – | scaled intrinsic clearance | 385 mL/min/kg
CCCCCCCCCCC(=O)O[C@H]1CC[C@H]2[C@H]3[C@H]([C@@H](C)C[C@]12C)[C@H]1CCC(=O)C=C1C[C@H]3C | – | human serum | 300 ng/mL, NaF 25.0 mg/mL | – | DMA level | not detected
C[C@H]1CN(C(=O)CC#N)[C@]12CCN(c1ncnc3[nH]ccc13)C2 | – | human | oral, 1.5 mg single dose | – | participants with influenza-like illness | 0%
OCc1ncc2n1-c1ccc(Cl)cc1C(c1ccccc1F)=NC2 | – | healthy volunteers, plasma | dose not given, with: momelotinib multiple-dose | relative to: compound alone | Cmax decrease | 14%
O=C1c2c(O)c(=O)ccn2N([C@@H]2c3ccccc3SCc3c2ccc(F)c3F)[C@@H]2COCCN12 | – | BALB/c mice, plasma | oral, 15 mg/kg baloxavir marboxil, 2 h | – | plasma concentration | 104 ng/mL
CCN(CC)C(=O)[C@@H]1C=C2c3cccc4[nH]cc(c34)C[C@H]2N(C)C1 | item: impaired balance | healthy volunteers | dose not given, 0 to 12 h | relative to: placebo, direction not given | List of Complaints score | 9
Cc1ncc(OC[C@@]2(c3cccc(F)c3)C[C@H]2C(=O)Nc2ccc(F)cn2)c(C)n1 | population PK base model | human, plasma | oral | – | V3/F | 223 L
C[C@]12CC[C@H]3[C@@H](CCC4=CC(=O)CC[C@@]43C)[C@@H]1CC[C@@H]2O | – | mouse liver microsomes | – | – | scaled hepatic intrinsic clearance | 1260 mL/min/kg and 838 mL/min/kg
C#Cc1ccc2c(c1)C(c1ccccn1)=NCc1c(-c3cnco3)ncn1-2.Cl | – | dichloromethane | 24 h, 25 °C, thermodynamic equilibrium | – | solubility | 711 µg/mL
C=C1C[C@H]2[C@@H]3CC[C@H](O)[C@@]3(C)CC[C@@H]2[C@@]2(C)C=CC(=O)C=C12 | – | postmenopausal women, serum | dose not given, UGT2B17 and GSTA1 genotypes | – | serum concentration | 1.9 nM
CCCCCCC#Cc1cncc(-c2nnc(SCc3ccc([N+](=O)[O-])o3)n2C2CC2)c1 | – | mouse liver microsomes | microsomal stability | – | t1/2 | 2.5 min
COc1cccc(C2(O)CCCCC2CN(C)C)c1 (centres unmarked) | joint PK model | human, whole blood | oral, two-compartment metabolite model | – | intercompartmental clearance | 0.0509 L/h
O=C1CC[C@H](N2Cc3cc(N4CCN(CC5CCN(c6ccc([C@@H]7c8ccc(O)cc8CC[C@@H]7c7ccccc7)cc6)CC5)CC4)ccc3C2=O)C(=O)N1 | item: Influenza | human | oral, 200 mg, with: dabigatran etexilate 75 mg | – | participants with adverse event | 4.2%
CCCCCCC#Cc1cncc(-c2nnc(SCc3cc([N+](=O)[O-])cc([N+](=O)[O-])c3)n2C)c1 | – | human liver microsomes | microsomal stability | – | t1/2 | 3.9 min
COc1ccc2c(c1)[C@]13CCCC[C@@H]1[C@H](C2)N(C)CC3 | – | Sprague-Dawley rat, male | – | – | unbound intrinsic clearance | 1410 mL/min/kg
COc1cc2c(Oc3ccc4[nH]c(C)cc4c3F)ccnc2cc1OCC1(N)CC1 | – | paediatric refractory sarcoma patients | 10 mg | – | influenza-like illness incidence | 25%
C=C(C)[C@@H]1CCC(C)=C[C@H]1c1c(O)cc(CCCCC)cc1O | – | human | 750 mg, trial 17075, with: fluconazole 400 mg | – | serious AEs | 0%
CCCCOc1nc(N)c2c(n1)N(Cc1cccc(CN3CCCC3)c1)CC(=O)N2 | – | human | oral, 2 mg, grade 1 | – | nausea incidence | 6.7%
CN/C(=N\[N+](=O)[O-])NCc1cnc(Cl)s1 | – | soil | 28 days, nominal 3.3 | – | concentration | 2.1 mg/kg dry soil
CCCCCn1nc(C(=O)Nc2cccc3ccccc23)c2ccccc21 | – | human liver microsomes | scaled to whole liver | – | scaled intrinsic clearance | 469 mL/min/kg
CCN1C[C@]2(COC)[C@H](O)C[C@H](OC)[C@@]34[C@@H]5C[C@@]6(O)[C@H](OC(=O)c7ccccc7)[C@@H]5[C@@](OC(C)=O)([C@@H]([C@H](OC)[C@H]23)[C@@H]14)[C@@H](O)[C@@H]6OC | – | Sprague-Dawley rat, plasma | oral, dose not given, in PCW extract | – | MRT(0-t) | 81.1 ± 2.88 min
CC(C)C[C@@H]1NC(=O)[C@H](C)N(C)C(=O)[C@H](Cc2ccccc2)NCc2cc(cn2C)CNC1=O | PAMPA | lecithin in dodecane | 100 µM, 17 h, pH 6.4, 37 °C | – | -log Pe | 6.61

Repeated from above:
SMILES | test | test system | setting | how to read | measurement | result
O=C1c2c(O)c(=O)ccn2N([C@@H]2c3ccccc3SCc3c2ccc(F)c3F)[C@@H]2COCCN12 | – | BALB/c mice, plasma | oral, 15 mg/kg baloxavir marboxil, 2 h | – | plasma concentration | 104 ng/mL
CCN1C[C@]2(COC)[C@H](O)C[C@H](OC)[C@@]34[C@@H]5C[C@@]6(O)[C@H](OC(=O)c7ccccc7)[C@@H]5[C@@](OC(C)=O)([C@@H]([C@H](OC)[C@H]23)[C@@H]14)[C@@H](O)[C@@H]6OC | – | Sprague-Dawley rat, plasma | oral, dose not given, in PCW extract | – | MRT(0-t) | 81.1 ± 2.88 min
